Measured values from different studies.
Compare with care: the assays were run in different laboratories. ± gives the spread as reported.
Metallo-beta-lactamase type 2: Metallo-beta-lactamase type 2 (Serratia marcescens, UniProt P52699)
KLRK1 with ULBP6: NKG2-D type II integral membrane protein, with ULBP6 (KLRK1, Homo sapiens, UniProt P26718)
Sequence of UniProt P26718 (whole entry, looked up): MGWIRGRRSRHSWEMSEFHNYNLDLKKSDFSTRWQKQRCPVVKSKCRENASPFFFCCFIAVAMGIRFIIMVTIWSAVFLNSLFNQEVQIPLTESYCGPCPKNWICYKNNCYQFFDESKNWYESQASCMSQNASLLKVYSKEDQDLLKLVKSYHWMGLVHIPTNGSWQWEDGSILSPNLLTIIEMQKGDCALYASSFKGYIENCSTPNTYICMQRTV
Sequence of UniProt P40261 (whole entry, looked up): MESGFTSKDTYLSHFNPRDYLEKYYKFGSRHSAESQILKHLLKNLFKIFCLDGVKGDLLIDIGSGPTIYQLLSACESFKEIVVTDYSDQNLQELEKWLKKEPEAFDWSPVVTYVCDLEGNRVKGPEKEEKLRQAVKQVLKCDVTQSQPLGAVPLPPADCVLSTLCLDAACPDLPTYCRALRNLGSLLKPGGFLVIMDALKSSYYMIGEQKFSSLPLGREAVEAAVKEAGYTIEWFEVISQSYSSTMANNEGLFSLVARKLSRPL
Sequence of UniProt Q16549 (whole entry, looked up): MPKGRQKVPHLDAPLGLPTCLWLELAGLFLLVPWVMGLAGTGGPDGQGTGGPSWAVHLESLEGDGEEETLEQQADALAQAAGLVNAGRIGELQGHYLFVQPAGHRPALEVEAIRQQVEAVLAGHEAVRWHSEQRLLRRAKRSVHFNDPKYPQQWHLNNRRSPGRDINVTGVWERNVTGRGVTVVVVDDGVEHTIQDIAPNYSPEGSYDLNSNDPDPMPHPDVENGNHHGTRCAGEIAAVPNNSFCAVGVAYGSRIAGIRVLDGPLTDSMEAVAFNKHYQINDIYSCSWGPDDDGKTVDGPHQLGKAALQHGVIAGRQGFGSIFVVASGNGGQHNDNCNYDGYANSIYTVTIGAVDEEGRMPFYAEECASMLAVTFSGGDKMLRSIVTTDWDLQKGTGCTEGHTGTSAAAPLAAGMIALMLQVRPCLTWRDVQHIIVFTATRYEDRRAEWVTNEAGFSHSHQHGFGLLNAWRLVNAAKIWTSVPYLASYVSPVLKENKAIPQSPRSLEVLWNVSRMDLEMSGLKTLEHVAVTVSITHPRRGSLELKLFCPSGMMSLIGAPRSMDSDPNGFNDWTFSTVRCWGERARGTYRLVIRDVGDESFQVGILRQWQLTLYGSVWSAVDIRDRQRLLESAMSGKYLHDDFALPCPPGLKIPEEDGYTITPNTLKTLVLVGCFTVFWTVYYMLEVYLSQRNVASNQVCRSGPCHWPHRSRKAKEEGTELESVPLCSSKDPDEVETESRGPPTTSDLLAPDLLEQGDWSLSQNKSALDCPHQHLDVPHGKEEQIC
Sequence of UniProt O15294 (whole entry, looked up): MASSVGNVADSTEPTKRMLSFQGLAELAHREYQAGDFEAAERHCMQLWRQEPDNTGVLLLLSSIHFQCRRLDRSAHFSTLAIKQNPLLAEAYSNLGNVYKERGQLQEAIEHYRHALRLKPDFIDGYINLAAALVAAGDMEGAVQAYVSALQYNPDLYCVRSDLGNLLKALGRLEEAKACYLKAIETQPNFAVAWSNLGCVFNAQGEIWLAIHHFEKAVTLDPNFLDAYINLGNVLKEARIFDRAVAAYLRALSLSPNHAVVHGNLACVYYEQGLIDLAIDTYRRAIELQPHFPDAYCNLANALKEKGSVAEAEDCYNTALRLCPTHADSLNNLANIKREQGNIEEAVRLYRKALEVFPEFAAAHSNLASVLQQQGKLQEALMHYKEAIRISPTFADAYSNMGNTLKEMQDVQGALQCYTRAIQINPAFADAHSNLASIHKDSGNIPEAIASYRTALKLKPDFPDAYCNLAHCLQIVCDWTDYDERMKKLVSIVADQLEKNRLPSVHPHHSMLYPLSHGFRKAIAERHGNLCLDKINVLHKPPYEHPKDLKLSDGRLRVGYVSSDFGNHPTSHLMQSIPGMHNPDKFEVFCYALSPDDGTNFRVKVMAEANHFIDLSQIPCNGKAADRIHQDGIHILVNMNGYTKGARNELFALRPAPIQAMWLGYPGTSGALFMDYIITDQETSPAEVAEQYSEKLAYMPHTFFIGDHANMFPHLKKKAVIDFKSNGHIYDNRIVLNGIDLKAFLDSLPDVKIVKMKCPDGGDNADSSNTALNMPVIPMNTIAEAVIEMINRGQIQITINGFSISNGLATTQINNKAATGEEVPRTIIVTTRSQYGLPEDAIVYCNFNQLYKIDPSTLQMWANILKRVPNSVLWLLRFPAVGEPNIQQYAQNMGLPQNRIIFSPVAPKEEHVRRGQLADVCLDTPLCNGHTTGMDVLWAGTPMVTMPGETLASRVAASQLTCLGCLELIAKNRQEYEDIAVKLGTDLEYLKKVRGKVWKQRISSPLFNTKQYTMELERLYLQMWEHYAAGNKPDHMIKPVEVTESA
Sequence of UniProt Q7Z5W3 (whole entry, looked up): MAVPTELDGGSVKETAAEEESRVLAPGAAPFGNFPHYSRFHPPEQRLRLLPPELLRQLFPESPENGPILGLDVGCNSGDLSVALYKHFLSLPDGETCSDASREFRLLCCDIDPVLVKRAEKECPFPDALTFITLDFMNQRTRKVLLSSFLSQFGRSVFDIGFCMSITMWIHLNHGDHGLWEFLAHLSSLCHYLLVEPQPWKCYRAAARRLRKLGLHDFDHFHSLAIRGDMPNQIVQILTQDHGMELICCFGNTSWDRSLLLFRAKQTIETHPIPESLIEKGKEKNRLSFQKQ
Sequence of UniProt Q08499 (whole entry, looked up): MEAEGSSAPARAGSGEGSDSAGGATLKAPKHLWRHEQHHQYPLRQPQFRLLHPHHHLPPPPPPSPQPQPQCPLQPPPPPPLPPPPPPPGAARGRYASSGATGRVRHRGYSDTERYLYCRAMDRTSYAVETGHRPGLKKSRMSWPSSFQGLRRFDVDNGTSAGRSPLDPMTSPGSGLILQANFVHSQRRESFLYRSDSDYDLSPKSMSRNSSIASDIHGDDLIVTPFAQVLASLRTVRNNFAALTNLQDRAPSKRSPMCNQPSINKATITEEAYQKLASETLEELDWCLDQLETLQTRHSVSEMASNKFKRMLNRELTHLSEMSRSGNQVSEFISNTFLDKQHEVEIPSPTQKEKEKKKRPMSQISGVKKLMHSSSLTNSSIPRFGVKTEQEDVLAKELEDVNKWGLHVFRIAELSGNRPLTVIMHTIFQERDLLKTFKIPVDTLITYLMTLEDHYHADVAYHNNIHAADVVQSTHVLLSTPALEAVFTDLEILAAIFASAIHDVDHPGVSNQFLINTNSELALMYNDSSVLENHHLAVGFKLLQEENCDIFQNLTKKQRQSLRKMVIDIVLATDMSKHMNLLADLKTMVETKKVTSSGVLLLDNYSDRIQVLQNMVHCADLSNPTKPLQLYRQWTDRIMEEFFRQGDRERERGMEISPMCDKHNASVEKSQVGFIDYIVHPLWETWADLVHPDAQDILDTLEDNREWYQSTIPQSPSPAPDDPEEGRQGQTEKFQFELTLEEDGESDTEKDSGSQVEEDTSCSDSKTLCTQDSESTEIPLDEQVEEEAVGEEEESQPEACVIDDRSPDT
Sequence of UniProt Q13705 (whole entry, looked up): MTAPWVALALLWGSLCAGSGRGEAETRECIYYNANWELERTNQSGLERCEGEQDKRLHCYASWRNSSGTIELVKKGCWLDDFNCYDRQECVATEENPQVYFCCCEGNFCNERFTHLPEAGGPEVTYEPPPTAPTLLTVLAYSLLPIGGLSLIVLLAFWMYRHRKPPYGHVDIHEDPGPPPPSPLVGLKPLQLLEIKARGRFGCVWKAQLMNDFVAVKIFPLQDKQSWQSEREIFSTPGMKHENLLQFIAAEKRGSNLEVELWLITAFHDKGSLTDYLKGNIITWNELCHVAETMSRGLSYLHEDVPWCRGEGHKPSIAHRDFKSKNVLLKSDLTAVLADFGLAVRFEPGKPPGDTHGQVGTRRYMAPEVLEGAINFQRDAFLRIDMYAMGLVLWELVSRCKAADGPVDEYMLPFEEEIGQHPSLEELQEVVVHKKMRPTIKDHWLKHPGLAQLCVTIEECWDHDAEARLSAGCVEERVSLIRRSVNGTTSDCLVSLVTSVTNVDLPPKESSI
Sequence of UniProt P11712 (whole entry, looked up): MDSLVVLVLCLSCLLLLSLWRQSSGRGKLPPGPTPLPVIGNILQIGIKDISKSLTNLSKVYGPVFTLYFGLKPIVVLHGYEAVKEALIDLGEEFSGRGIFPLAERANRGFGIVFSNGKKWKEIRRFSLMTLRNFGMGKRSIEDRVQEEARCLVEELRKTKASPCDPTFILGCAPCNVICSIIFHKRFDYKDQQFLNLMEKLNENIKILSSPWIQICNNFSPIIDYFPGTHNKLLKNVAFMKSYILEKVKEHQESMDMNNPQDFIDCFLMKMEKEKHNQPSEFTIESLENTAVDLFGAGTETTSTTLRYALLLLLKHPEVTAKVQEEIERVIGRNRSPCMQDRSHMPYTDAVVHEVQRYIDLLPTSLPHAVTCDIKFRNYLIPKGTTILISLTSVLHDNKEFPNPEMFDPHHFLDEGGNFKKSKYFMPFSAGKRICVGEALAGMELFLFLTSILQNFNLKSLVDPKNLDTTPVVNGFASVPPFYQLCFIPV
Sequence of UniProt P05186 (whole entry, looked up): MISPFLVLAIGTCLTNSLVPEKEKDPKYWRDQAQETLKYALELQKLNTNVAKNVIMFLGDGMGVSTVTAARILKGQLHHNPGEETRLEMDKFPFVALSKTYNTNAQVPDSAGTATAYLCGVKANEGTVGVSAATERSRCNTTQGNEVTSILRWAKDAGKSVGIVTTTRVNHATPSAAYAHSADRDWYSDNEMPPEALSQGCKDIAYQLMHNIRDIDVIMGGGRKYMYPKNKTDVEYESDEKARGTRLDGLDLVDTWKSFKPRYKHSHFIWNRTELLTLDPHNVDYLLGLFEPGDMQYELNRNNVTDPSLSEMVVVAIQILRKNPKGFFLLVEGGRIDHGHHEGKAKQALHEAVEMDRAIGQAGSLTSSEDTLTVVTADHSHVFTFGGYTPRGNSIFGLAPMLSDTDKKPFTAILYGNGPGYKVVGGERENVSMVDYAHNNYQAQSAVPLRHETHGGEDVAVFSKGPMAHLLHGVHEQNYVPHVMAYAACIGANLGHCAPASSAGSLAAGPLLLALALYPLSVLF

| SMILES | target | test | test system | conditions | IC50 [µM] |
| --- | --- | --- | --- | --- | --- |
| CCCCCCCCCC(=O)N[C@@H](CCCNC(=N)N)C(=O)N[C@H](C(=O)N[C@@H](CCCCN)C(=O)N[C@@H](CCCNC(=N)N)C(=O)CCl)C(C)C | Proprotein convertase subtilisin/kexin type 7 (Homo sapiens, UniProt Q16549) | enzyme activity, inhibitor |  |  | 0.000251 |
| O=P(O)(O)OC[C@H]1O[C@@](O)(C(F)(F)F)[C@H](O)[C@@H](O)[C@@H]1O | algC (Pseudomonas aeruginosa, UniProt P26276) | enzyme activity, inhibitor |  | pH 7.4, 25 °C, with: alpha-glucose 1-phosphate 20 µM | 345 ± 55 |
| CCCCn1nnc(-c2cccc(NC(=O)[C@H](C)CS)c2)n1 | Metallo-beta-lactamase type 2 | inhibitor |  | 10 min preincubation, with: FC5 substrate | 4.97 |
| CC(C)C[C@@H]1NC(=O)[C@H](CCCCN)NC(=O)CNC(=O)CNC(=O)[C@H](Cc2ccccc2)NC(=O)[C@H](CO)NC(=O)[C@H](Cc2ccccc2)NC(=O)[C@H](C(C)C)NC(=O)[C@H](Cc2ccc(O)cc2)NC(=O)[C@H](C(C)C)NC(=O)[C@H](Cc2ccc(O)cc2)NC(=O)CSC[C@@H](C(=O)NCC(N)=O)NC(=O)[C@H](CCCCN)NC(=O)[C@H](CCCNC(=N)N)NC(=O)[C@H](C(C)C)NC(=O)[C@H](CC(C)C)NC(=O)[C@H](Cc2ccc(O)cc2)NC1=O | NNMT (Homo sapiens, UniProt P40261) | enzyme activity, inhibitor, mass spectrometry |  |  | 5.34 |
| NC[C@@H](CC[C@H](N)C(=O)O)C[C@H]1O[C@@H](n2cnc3c(N)ncnc32)[C@H](O)[C@@H]1O | BCDIN3D (Homo sapiens, UniProt Q7Z5W3) | enzyme activity, inhibitor, radiometric |  |  | 1.7 |
| CCn1nnc(-c2ccccc2NC(=O)[C@H](C)CS)n1 | blaNDM-1 (Klebsiella pneumoniae, UniProt C7C422) | enzyme activity, inhibitor, fluorescence |  | with preincubation | 1.84 |
| CC[C@H](C)[C@@H]1NC(=O)[C@H](CCCNC(=N)N)NC(=O)[C@H](CC(N)=O)NC(=O)[C@@H]2CSSC[C@@H](C(=O)NCC(=O)N[C@@H](CCCCN)C(=O)N[C@@H](CCCCN)C(N)=O)NC(=O)[C@H](C)NC(=O)[C@H](CCCCN)NC(=O)[C@H](Cc3c[nH]c4ccccc34)NC(=O)[C@H](CSSC[C@H](NC(=O)[C@H](CC(C)C)NC(=O)[C@H](C)N)C(=O)N[C@@H](CC(N)=O)C(=O)N2)NC(=O)[C@H](CCC(N)=O)NC(=O)[C@H](Cc2c[nH]cn2)NC(=O)[C@@H]2CCCN2C(=O)[C@H]([C@@H](C)CC)NC(=O)[C@H]([C@@H](C)CC)NC1=O | Kcnj6/Kcnj3 (Mus musculus, UniProt P48542+P63251) | ion current, inhibitor, two-electrode voltage clamp | Xenopus laevis oocytes | -80 mV, 20 mM K+, with: Gbeta1gamma2 activation | 0.028 ± 0.003 |
| COc1cc2c(cc1O)oc(=O)c1c3cc(O)c(O)cc3oc21 | Genome polyprotein, NS5B polymerase (Hepatitis C virus genotype 1b, UniProt P26663) | NS5B RNA polymerase activity, inhibitor | hepatitis C virus, genotype 1b | with: poly(rA)/U12 | 18.5 |
| COc1ccc(F)cc1S(=O)(=O)Nc1cnc2c(c1)C(=O)NCCO2 | ALPL (Homo sapiens, UniProt P05186) | enzyme activity, inhibitor, absorbance |  | pH 7.5 | 0.0034 |
| CC[C@H](C)[C@H](NC(=O)[C@H](CCC(N)=O)NC(=O)[C@@H](NC(=O)[C@H](CO)NC(=O)CNC(=O)[C@H](CC(C)C)NC(=O)[C@@H](N)Cc1ccccc1)C(C)C)C(=O)N[C@@H](CCCNC(=N)N)C(=O)N[C@H](C(=O)O)C(C)C | HLA class I histocompatibility antigen, A alpha chain, allele A*02:01 (Homo sapiens, UniProt P04439) |  |  |  | < 5.01 |
| CC(C)C[C@H](NC(=O)[C@H](C)NC(=O)[C@H](CO)NC(=O)[C@H](CC(=O)O)NC(=O)[C@@H](N)CCC(=O)O)C(=O)N[C@@H](CC(C)C)C(=O)N[C@@H](CCC(=O)O)C(=O)N[C@@H](CC(=O)O)C(=O)N1CCC[C@H]1C(=O)N[C@@H](C)C(=O)NCC(=O)N[C@H](C(=O)O)[C@@H](C)O | HLA-DRA/HLA-DRB3 (Homo sapiens, UniProt P01903+P79483) | binding, competition binding | purified HLA-DR | 48 h, with: radiolabelled probe peptide 0.1-1 nM | > 5 |
| CN[C@@H](C)C(=O)N[C@H](C(=O)N1C[C@@H](NC(=O)COCCOCc2cn(CCNC(=O)CN(Cc3cccs3)C(=O)[C@H](NS(=O)(=O)c3cc4ccc(O)nc4cc3Cl)c3ccccc3OC)nn2)C[C@H]1C(=O)N[C@@H]1CCCc2ccccc21)C1CCCCC1 | OGT (Homo sapiens, UniProt O15294) | enzyme activity, inhibitor, fluorescence |  |  | 1.5 |
| CC(C)=CCc1c(O)ccc(-c2coc3cc(O)cc(O)c3c2=O)c1O | PDE4D (Homo sapiens, UniProt Q08499) | enzyme activity, inhibitor, radiometric |  |  | 1.77 |
| Nc1ncnc2c1ncn2[C@@H]1O[C@H](CSCCNC(=O)NCC2CCCCC2)[C@@H](O)[C@H]1O | N6-adenosine-methyltransferase catalytic subunit, with METTL14 (METTL3, Homo sapiens, UniProt Q86U44) | enzyme activity, inhibitor, radiometric |  | METTL3-METTL14 complex | > 50 |
| CCCn1nnc(-c2ccccc2NC(=O)[C@H](C)CS)n1 | Metallo-beta-lactamase type 2 | enzyme activity, inhibitor, fluorescence |  | 10 min preincubation, with: FC5 | 0.879 |
| N[C@@H](CC(=O)O)C(=O)N[C@@H](Cc1ccccc1)B(O)O | Serine hydrolase RBBP9 (Homo sapiens, UniProt O75884) | enzyme activity, inhibitor |  |  | 1.08 |
| CC(=O)C(NC(=O)c1ccccc1-c1ccc(C(F)(F)F)cc1)c1cccc(C(F)(F)F)c1 (stereo not drawn) | KLRK1 with ULBP6 | ligand binding, inhibitor, TR-FRET | HEK293 expressing NKG2D and DAP10 | with: ULBP6-AF647 | > 20 |
| Cc1cccc(-c2nc(Nc3ccncn3)c3sccc3n2)n1 | Cytochrome P450 2C9 (CYP2C9, Homo sapiens, UniProt P11712) | inhibitor |  |  | 26 |
| CCCCCCCCCC(=O)CC(=O)Nc1cccc(OC)c1 | lasR (Pseudomonas aeruginosa, UniProt P25084) | reporter gene, antagonist | Escherichia coli, JLD271 with LasR plasmid | with: OdDHL 2 nM | 4.7 |
| CN(C)C(=O)[C@@H](NC(=O)c1cnccc1-c1ccc(C(F)(F)F)cc1)c1cc(C(F)(F)F)cc(C(F)(F)F)c1 | KLRK1 with ULBP6 | ligand binding, inhibitor, TR-FRET | HEK293 expressing NKG2D and DAP10 | with: ULBP6-AF647 | 0.5 ± 0.3 |
| CC[C@H](C)[C@@H]1NC(=O)[C@H](CCCNC(=N)N)NC(=O)[C@@H]2CCCN2C(=O)[C@H](C(C)C)NC(=O)[C@H](CO)NC(=O)[C@H]([C@@H](C)O)NC(=O)CNC(=O)[C@H](CC(=O)O)NC(=O)[C@@H](NC(=O)[C@@H](N)C(C)C)CSSC[C@@H](C(=O)N[C@H](C(=O)O)C(C)C)NC1=O | ACVR2B (Homo sapiens, UniProt Q13705) | reporter gene, antagonist, refers to: Smad2/3 | HEK293T | 4 h, with: activin A 0.33 ng/mL | > 100 |

For quick reference, copied from above:
| SMILES | target | test | test system | conditions | IC50 [µM] |
| --- | --- | --- | --- | --- | --- |
| CC(=O)C(NC(=O)c1ccccc1-c1ccc(C(F)(F)F)cc1)c1cccc(C(F)(F)F)c1 (stereo not drawn) | KLRK1 with ULBP6 | ligand binding, inhibitor, TR-FRET | HEK293 expressing NKG2D and DAP10 | with: ULBP6-AF647 | > 20 |
| Cc1cccc(-c2nc(Nc3ccncn3)c3sccc3n2)n1 | Cytochrome P450 2C9 (CYP2C9, Homo sapiens, UniProt P11712) | inhibitor |  |  | 26 |
| COc1cc2c(cc1O)oc(=O)c1c3cc(O)c(O)cc3oc21 | Genome polyprotein, NS5B polymerase (Hepatitis C virus genotype 1b, UniProt P26663) | NS5B RNA polymerase activity, inhibitor | hepatitis C virus, genotype 1b | with: poly(rA)/U12 | 18.5 |
